Assay results pooled from the literature.
Numbered parts are unrelated; each lists some results of a single study. Positions count from the first letter of the parent shown.

Study 1 — technique: RNA Bind-n-Seq; form: RNA; sample: in vitro; concentration: 365 nM; baseline: no-protein control; reading: higher = stronger binding; endpoint: RBNS enrichment (R)
Target: RNA binding protein fox-1 homolog 2, RRM domain, GST-SBP tag (RBFOX2, Homo sapiens, UniProt O43251-10, residues 100-194)
Notes: natural RNA segment, single round, ends assumed
All sequences stand within: GGGAGUUCUACAGUCCGACGAUC … UGGAAUUCUCGGGUGCCAA
UUAGGAUGUCACUCCCAGGGUAAAGACCUCUGAUCACAGCAGGAGCAGAGCUGUGCAGCCUGGAUGGUCAUUGUCCCCUAUUCUGUGUGACCACAGCAACCCUGGUCACA: 0.697
ACAGAAGCAUAGACAAGUAUAUGAGCCCUUAUGUCCUUAAUGCCAAUCAACUAGAUUGACCUAGGUUAAAAUUUCAAAAGGCUCAUUUUCUCCCAAAGCUAAAUCUUUAU: 0.403
UGUUUGAAGUCUGCGAUGAAAAAUAAUUUUUAAAAGUAUUAAGAACACUAAAAUGGAUUAGAAUUAUCUUAAAAGAUCCUUUAUAAAAUGACUUGUAUUGAUUGGUUUAU: 1.11
AUGUAUGUGUAAAGUGUGAAUAAAUCUCAUAUCAAAUGUCAAACUUUUACAUGUGAAUGAUUUUCUCAAAGAACAUAGAAAAGUCAAUAAAAUCCUCUUAAUUUCCACAU: 0.446
UCUUCAAAAAUGGUCACAGAAUGCCUUUUAAAACAUUGUAUAUAAUCUUCACUGUUUCACCAUCUAGCUUGCUAAGUCAAAUAUUUAUGAUGAUAAUGAGGUACUGAACC: 0.434
GUAUUAUGCAGAAAGUUAAUGCAGAUACCUAUUCAAGAUGAUAACUGUAAAGACACUGCUGUCUCCUUAAUAUGCUCCUUAACACGUAUGUUGAUGUAGCAUCAUUUUGU: 0.581
AUGCUAAAUGUUUUAAUCAAGAGAAGCACUGAUCUUAUAAUACGAGGAUAAGAGAUUUUCUCACAGGAAAUUGUCUUUUUCAUAAUUCUUUUACAGGCUUUGUCCUGAUC: 0.661
UGUAUUUUUAAAUAUGUUUUAAAAGAACUCAGGAACAAUUUACGUCUCUGUAUCUUUUUUUUACUAUUGUUGUUUUGACCUCAAAGCUGGGAAUAAAAGUCAGAGCCUUA: 0.417

Study 2 — target: CCNA1, cyclin fold, Cln2 fusion (human); technique: yeast growth competition, sequencing; sample: yeast; notes: weak parent motif; baseline: not given; reading: higher = stronger binding; endpoint: normalised enrichment score
Starting sequence: EXO1 docking peptide (human); KPECGRVQRAIFQ; partner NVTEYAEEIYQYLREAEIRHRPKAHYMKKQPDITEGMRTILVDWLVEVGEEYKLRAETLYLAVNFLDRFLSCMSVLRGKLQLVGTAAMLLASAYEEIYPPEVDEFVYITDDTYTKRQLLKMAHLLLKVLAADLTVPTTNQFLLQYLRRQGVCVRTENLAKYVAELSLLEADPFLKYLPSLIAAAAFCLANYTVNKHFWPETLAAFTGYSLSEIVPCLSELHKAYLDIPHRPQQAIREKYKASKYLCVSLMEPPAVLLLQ
KPECGRAQRAIFQ [V7A]: -0.0418
KPECGRVQRAIAQ [F12A]: 0.105
KPECARVQRAIFQ [G5A]: -0.19
KPECGAVQRAIFQ [R6A]: 0.101
APECGRVQRAIFQ [K1A]: -0.273
KPECGRVQRAIFA [Q13A]: 0.111

Study 3 — target: CEBPD, bZIP domain (human); technique: DHFR protein complementation; sample: yeast; baseline: wild-type JUN-FOS pair; reading: higher = stronger binding; endpoint: binding fitness
Notes: single substitutions, most at no-binding floor
Starting sequence: JUN, bZIP domain (human); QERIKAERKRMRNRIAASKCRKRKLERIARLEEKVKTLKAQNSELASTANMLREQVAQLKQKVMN; partner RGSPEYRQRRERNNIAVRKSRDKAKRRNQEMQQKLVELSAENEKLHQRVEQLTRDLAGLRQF
Q58P: -1.49 natural log
K34H: -1.42 natural log
Q55W: -1.41 natural log
V56E: -1.44 natural log
A40M: -1.3 natural log
R53V: -1.32 natural log
N42F: -1.43 natural log
A57M: -1.41 natural log
T37W: -1.31 natural log
E33C: -1.49 natural log
T48V: -1.43 natural log
K39P: -1.48 natural log
A49W: -1.32 natural log
V56P: -1.46 natural log
Q55R: -1.39 natural log

Study 4 — technique: protein binding microarray; form: double-stranded DNA, one strand shown; sample: in vitro; concentration: not given; baseline: not given; reading: higher = stronger binding; endpoint: E-score
Target: Histone acetyltransferase KAT6A, winged helix 1, GST fusion (KAT6A, Homo sapiens, UniProt Q92794, residues 1-85)
Notes: 8-mer, flanks averaged, mean of 2 arrays, mostly near background
Target sequence (chain): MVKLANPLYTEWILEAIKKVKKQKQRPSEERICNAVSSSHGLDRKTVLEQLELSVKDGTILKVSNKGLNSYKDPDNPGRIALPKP
GCTGATGA: 0.0185
ATTTTCAG: -0.18
GCCGGAAA: 0.239
ACCATATG: -0.208
GCTACCTA: -0.162
AGGTAGCG: 0.128
CCCTCGCC: 0.00854
ACCTTTGC: -0.111
AAACCAGA: -0.122
GGGTAGTA: 0.00908
TCCTAAAA: -0.131
TGAGGACA: -0.348
ATTACCCC: 0.00967
CAGATGGG: -0.092
TCGGACCA: -0.0404
AGATTCAG: -0.15
AGGCCGGC: 0.282
AATGCGCA: 0.298

Study 5 — technique: Spec-seq; form: double-stranded DNA, one strand shown; sample: in vitro; concentration: not given; notes: whole probe, mean of replicates; baseline: not given; reading: lower = stronger binding; endpoint: relative binding energy; all sequences stand within: GAGTCGTCTCGTCAGCAC … CCGTAGAGCACTCAGGTC
Target: POU, POU domain (Salpingoeca helianthica)
Construct (chain): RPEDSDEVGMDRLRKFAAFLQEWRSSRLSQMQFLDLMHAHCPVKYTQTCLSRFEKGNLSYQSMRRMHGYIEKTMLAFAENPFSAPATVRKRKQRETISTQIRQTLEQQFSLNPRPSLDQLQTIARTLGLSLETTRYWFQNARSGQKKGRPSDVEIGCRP
ATGCACAG: 1.41 ln ratio
ATTGACAT: 1.03 ln ratio
ATGCCTAG: 1.37 ln ratio
ATGCTCGG: 1.34 ln ratio
ATGCGGTC: 1.42 ln ratio
ATGCAATG: 1.12 ln ratio
ATGTATAT: 0.896 ln ratio
TTCCTAAT: 0.683 ln ratio
ATGCGGCC: 1.56 ln ratio
GATGTAAT: 0.483 ln ratio
GGCGTAAT: 0.575 ln ratio
GTGTTAAT: -0.292 ln ratio
ATGCAAAC: 1.05 ln ratio
ATGCCCTG: 1.53 ln ratio
ATGCGCGA: 1.5 ln ratio
ATAACTAT: -0.331 ln ratio
ATTATAAT: -0.687 ln ratio
ATACAGAT: 1.29 ln ratio
ATCAATAT: 0.648 ln ratio
ATGCGCTC: 1.47 ln ratio
